Measured values collected from several papers.
Lines come from different studies, so protocols differ. ± marks the error that the study gave.
EPHX2: Bifunctional epoxide hydrolase 2 (EPHX2, Homo sapiens, UniProt P34913)
PGR: Progesterone receptor (PGR, Homo sapiens, UniProt P06401)

`COC(=O)c1ccc(N2CCN(C(=O)C3CC3)C(C)C2)cc1` (stereo not shown) — result for “potency relative to JH I”: 140 fold lower (Methoprene-tolerant protein, with Taiman (Drosophila melanogaster, UniProt O44118); reporter gene, agonist; HEK-293T, Drosophila Met and Tai transfected; 24 h; reference: JH I).
`CONC(=O)C1CCN(C(=O)c2ccc(NC(=O)NC34CC5CC(C)(CC(C)(C5)C3)C4)cc2)CC1` — result for “lipophilic ligand efficiency”: 6.6 (EPHX2).
The koff of `CCOc1cccc(C(=O)Nc2ccc(-c3nc4ccccc4[nH]3)cc2)c1` is reported as 0.000102 s⁻¹ (Heat shock protein 90, N-terminal domain (Plasmodium falciparum, UniProt Q8IC05); binding, SPR).
`CCCCOP(=O)(CCCC)O[C@@H]1O[C@H](CO)[C@@H](O)[C@H](O)[C@H]1F` (mixture of isomers) gave a kinact/Ki of 31.2 M⁻¹ s⁻¹ (GBA1 (Homo sapiens, UniProt P04062); enzyme activity, irreversible inhibitor; pH 5.5, 37 °C, added: 2,4-dinitrophenyl beta-D-glucopyranoside).
The k2 of `N[C@@H](Cc1ccc(O)c(Cl)c1)C(=O)O` is reported as 0.134 s⁻¹ (Iodotyrosine deiodinase 1 (Homo sapiens, UniProt Q6PHW0); substrate, stopped-flow; 200 µM).
`O=C(Nc1ccc(C(=O)Nc2ccc(C(=O)Nc3ccc(S(=O)(=O)O)c4cc(S(=O)(=O)O)cc(S(=O)(=O)O)c34)cc2)cc1)Nc1ccc(C(=O)Nc2ccc(C(=O)Nc3ccc(S(=O)(=O)O)c4cc(S(=O)(=O)O)cc(S(=O)(=O)O)c34)cc2)cc1` has a Hill slope of 2.6 ± 0.1 (Neutrophil elastase (ELANE, Homo sapiens, UniProt P08246); enzyme activity, inhibitor, chromogenic substrate hydrolysis; pH 7.4, 37 °C, 100 mM NaCl, added: substrate S-1384).
For `[11CH3]Nc1ccc(-c2nc3ccc(O)cc3o2)cn1`, “distribution volume ratio” read 1.47 ± 0.11 (APP (Homo sapiens, UniProt P05067); binding, PET, reference Logan; Alzheimer's disease patients, grey matter; reference: cerebellum).
The remaining activity of `CCCCCCCCSc1nc2c([nH]1)c(=O)n(C)c(=O)n2C` is reported as 33% (PGR; reporter gene, antagonist, MMTV-luciferase; T47D/A1-2; 10 µM, 24 h, added: 5 nM progesterone; reference: maximal activity).
`[3H]CC([3H])C(=O)NCc1cc(C(=O)NCCN2CCC(N3CCC(n4c(=O)[nH]c5ccccc54)CC3)CC2)cc(C(=O)NCCN2CCN(CCCCC3CCN(CC(=O)N4c5ccccc5NC(=O)c5ccccc54)CC3)CC2)c1` (stereo not shown) gave a dissociation plateau of about 47% (CHRM2 (Homo sapiens, UniProt P08172); radioligand binding; CHO cells expressing human M2 receptor, cell homogenate).
The specific activity of `CCCCCCCC(=O)Nc1ccc(C#N)nc1C` is reported as 12 pmol/min/µg (FAAH (Homo sapiens, UniProt O00519); enzyme activity, substrate; 50 µM, pH 8, 37 °C).
The activation of `N=C(N)NCCC[C@H](NC(=O)[C@H](CC(=O)O)NC(=O)[C@@H]1CSCC(=O)NCC(=O)N[C@@H](Cc2c[nH]cn2)C(=O)N[C@H](Cc2ccccc2)C(=O)N[C@@H](CCCNC(=N)N)C(=O)N[C@H](Cc2c[nH]c3ccccc23)C(=O)N1)C(=O)N[C@@H](Cc1ccccc1)C(=O)NCC(N)=O` is reported as 0% (MC5R (Homo sapiens, UniProt P33032); cAMP accumulation, agonist; HEK293 expressing MC5R; 10 µM; reference: MT-II).
The mRNA level of `CC(=O)OC1(C(C)=O)CCC2C3C=C(C)C4=CC(=O)C(O)CC4(C)C3CCC21C` (stereo not shown) is reported as 3.6 ± 0.2 fold change (PGR; measured: E2F1; T47D; 100 nM, 8 h; reference: ethanol vehicle).
For `O=c1ncccn1[C@H]1C[C@H](O)[C@@H](CO)O1`, the Km/Ki ratio was 24 (Cytidine deaminase (CDA, Homo sapiens, UniProt P32320); added: deoxycytidine).
`CCc1nc2cc3ccccc3cc2cc1C(=O)N[C@@H](CCCCN)C(=O)N[C@@H](C/C=C/C[C@H](NC(=O)[C@H](CCCCN)NC(=O)c1cc2cc3ccccc3cc2nc1CC)C(=O)N1CCC[C@H]1C(=O)NCCCN)C(=O)N1CCC[C@H]1C(=O)NCCCN` has a residence time of 374 s (CUG–CAG duplex RNA; SPR).
For `CCCCCCCCCc1nc2cc(Cl)ccc2c(=O)n1O`, “membrane dipole potential change” read “increased” (Staphylococcus aureus membranes; di-8-ANEPPS fluorescence ratio; 40 µM).
With `O=C(NO)c1ccc(Cn2sc3ccccc3c2=O)cc1` the Vmax was 5.9 nM/min/mg (HDAC6 (Homo sapiens, UniProt Q9UBN7); enzyme activity; 50 nM).
`CCC(NC(=O)C(CC(C)C)NC(=O)CCc1ccccc1)C(=O)C(=O)NCc1cc(F)cc(OC)c1` (stereo not shown) — result for enzyme activity: “no effect” (Calpain-1 catalytic subunit (Capn1, Mus musculus, UniProt O35350); brain enzyme activity; mouse, controlled cortical impact TBI, brain; intraperitoneal, 0.1 or 1.0 mg/kg, 24 h after TBI).
Under “time constant of inhibition”, `CC1=C(/C=C/C(C)=C/C=C/C(C)=C/C=O)C(C)(C)CCC1` is recorded as 6750 s (CNGA1 (Bos taurus, UniProt Q00194); ion current, inhibitor, outside-out patch clamp; 400 nM, not at steady state, added: cGMP 2 mM).
For `CCCCCCCCCCCCSc1nc2c([nH]1)c(=S)n(C)c(=O)n2C`, the remaining activity was 76% (PGR; reporter gene, antagonist, MMTV-luciferase; T47D/A1-2; 10 µM, 24 h, added: 5 nM progesterone; reference: maximal activity).
`CC(C)[C@H](NC(=O)[C@H](CCCCN)NC(=O)[C@H](C)NC(=O)[C@H](CCCCN)NC(=O)CNC(=O)[C@H](CCCNC(=N)N)NC(=O)[C@@H](NC(=O)[C@H](CCCCN)NC(=O)[C@@H](N)CO)[C@@H](C)O)C(=O)N[C@H](C(=O)NCC(=O)N[C@@H](CS)C(=O)N[C@@H](Cc1c[nH]c2ccccc12)C(=O)N[C@@H](CCCCN)C(=O)O)[C@@H](C)O` gave a koff of 0.0256 ± 0.00522 s⁻¹ (TPM1/ACTA1, with F-actin (Oryctolagus cuniculus, UniProt P58772+P68135); binding, LSPR; F-actin-tropomyosin filament; pH 7.0).
`CCCCCCCCCSc1nc2c([nH]1)c(=S)n(C)c(=O)n2C` gave a remaining activity of 42% (PGR; reporter gene, antagonist, MMTV-luciferase; T47D/A1-2; 10 µM, 24 h, added: 5 nM progesterone; reference: maximal activity).
For `O=C(NC[C@@H](Cc1ccc(F)cc1)N1CCC(O)(C(F)(F)F)CC1)C1(c2ccc(Cl)cc2)CCCC1`, activation read “inhibited” (TRPA1 (Homo sapiens, UniProt O75762, I946M); calcium influx, agonist; concentration not given, I946M mutant).
`CCC(C)n1c(C(=O)Nc2cnc(C(=O)NC)n(CC(C)C)c2=O)ncc(NC(=O)c2ncc(NC(=O)c3ccccc3)c(=O)n2Cc2ccc(OC)cc2)c1=O` (stereo not shown) — result for “radius of gyration”: 3.46 nm (Heat shock protein HSP 90-alpha, C-terminal domain (HSP90AA1, Homo sapiens, UniProt P07900); SAXS; 230 µM, equimolar to protein).
`C[C@]12CCC(=O)C=C1CCC1C2CC[C@]2(C)C(c3cccnc3)=CCC12` (stereo partly shown) — result for “conversion to DHEA”: 4.2% (CYP17A1 (Homo sapiens, UniProt P05093); enzyme activity; HEK293 expressing CYP17A1; 1 nM, 3 h, added: [3H]pregnenolone).
`CC(C)C(N)C(=O)N1CCN(C(=O)c2ccc(NC(=O)NC34CC5CC(C)(CC(C)(C5)C3)C4)cc2)CC1` (stereo not shown) — result for “lipophilic ligand efficiency”: 6.13 (EPHX2).
For `CNC(=O)c1ccccc1Oc1nc(Nc2cc(OC)c(OC)c(OC)c2)ncc1Br`, enzyme activity read “no effect” (Adenosine kinase (ADK, Homo sapiens, UniProt P55263); up to 10 µM).
`CCCCCCCCCCCCCCCC(=O)N[C@@H](CCCCN)C(=O)N[C@@H](CCCCN)C(=O)N[C@@H](CO)C(=O)N[C@@H](CCCNC(=N)N)C(=O)N[C@@H](C)C(=O)N[C@@H](CC(C)C)C(=O)N[C@@H](Cc1ccccc1)C(N)=O` — result for “recovery of platelet aggregation”: 50% (F2R (Homo sapiens, UniProt P25116); antagonist, light transmission aggregometry; ex vivo human platelets; 0.5 mg/kg, 14 days, added: SFLLRN 5 µM; reference: 24 h value).
For `O=C(Nc1cc(Cl)cc(Cl)c1)Nc1ccc2[nH]ccc2c1`, “maximum ThT fluorescence” read 6 ± 2% (Alpha-synuclein (SNCA, Homo sapiens, UniProt P37840); fibril formation, ThT fluorescence kinetics; 100 µM, α-syn 2 µM, plateau phase; reference: DMSO vehicle).
`C[C@@H]1O[C@@H](O[C@H]2C(=O)c3c(O)cc(O)cc3O[C@@H]2c2ccc(O)c(O)c2)[C@H](O)[C@H](O)[C@H]1O` has a 1-NBDG uptake of 37.1 ± 2.99% (SLC5A2 (Homo sapiens, UniProt P31639); inhibitor; COS-7 expressing SLC5A2; 50 µM; reference: control).
The covalent modification of `C=CC(=O)N1C[C@H](C)N(c2nc(OC[C@@]34CCCN3C[C@H](F)C4)nc3c(F)c(-c4ccc(F)c5sc(N)nc45)c(C(F)(F)F)cc23)C[C@H]1C` is reported as over 90% (GTPase KRas, GppNHp-bound (KRAS, Homo sapiens, UniProt P01116, C118S/G12C); MALDI-TOF MS; 15 min, GppNHp-loaded).
`CC(/C=C/C(=O)NO)=C\[C@@H](C)C(=O)c1ccc(N(C)C)cc1` gave a binding stoichiometry of 0.8 ± 0.1 (HDAC8 (Homo sapiens, UniProt Q9BY41); ITC; Tris-HCl buffer; concentration not given, pH 7.5, 25 °C).
For `CCCCCCSc1nc2c([nH]1)c(=S)n(C)c(=S)n2C`, the remaining activity was 103% (Nr3c1 (Rattus norvegicus, UniProt P06536); reporter gene, antagonist, MMTV-luciferase; T47D/A1-2; 10 µM, 24 h, added: 5 nM dexamethasone; reference: maximal activity).
For `CC(C)(C)CCN1C[C@@H]2[C@@H](CNC(=O)c3cc(Cl)cc(Cl)c3)[C@@H]2C1.Cl`, the activation V1/2 was -41.7 mV (CACNA1H (Homo sapiens, UniProt O95180); whole-cell patch clamp; HEK-293T, transfected; 100 nM).
The maximal inhibition of `CC(C)CCC[C@@H](C)[C@H]1CC[C@H]2[C@@H]3CC=C4C[C@@H](OS(=O)(=O)O)CC[C@]4(C)[C@H]3CC[C@]12C` is reported as 69.8 ± 3.1% (Prothrombin (F2, Homo sapiens, UniProt P00734); enzyme activity, inhibitor; added: unfractionated heparin 50 µM).
`S=C(c1ccc(-c2cc(Cl)ccc2Cl)o1)N1CCN(CCc2ccccn2)CC1` gave an Emax of 148% (NPR2 (Homo sapiens, UniProt P20594); HTRF, measured: cGMP; HEK293 overexpressing GC-B; added: subthreshold CNP; reference: saturating CNP).
`COC(=O)Nc1ccc2c(c1)c(Cc1ccc(C(=O)NS(=O)(=O)c3ccc(C(F)(F)F)cc3)cc1OC)cn2C` — result for IκB degradation: “inhibited” (Tumor necrosis factor receptor superfamily member 1A (Homo sapiens, UniProt P19438); TNF-induced IκB degradation, inhibitor; HEK293 cells; 0.01 to 500 nM).
`CNc1ccccc1C(=O)O[C@H]1C[C@H](n2cnc3c(N)ncnc32)O[C@@H]1COP(=O)(O)OP(=O)(O)O` — result for “association rate constant”: 3.16e+06 ± 90000 M⁻¹ s⁻¹ (Unconventional myosin-Va (Gallus gallus, UniProt Q02440, D297C/G292C/I296C/S293C/V295G); stopped-flow FRET; 15 °C, added: MgCl2 2 mM).
`COc1ccc(NC(=O)Cc2ccccc2)c(C)n1` gave a specific activity of under 1 pmol/min/µg (Cocaine esterase (CES2, Homo sapiens, UniProt O00748); substrate; 50 µM, pH 8, 37 °C, enzyme purity 4%).
`NC(=O)CN1C(=O)C(O)(CC(=O)c2cccc(N)c2)c2ccccc21` (stereo not shown) gave a kcat/Km of 0.0208 M⁻¹ s⁻¹ (uncharacterized protein (Leishmania donovani, UniProt A0A3Q8IA09); glutamine hydrolysis, inhibitor; 100 µM, added: glutamine substrate).
Under “intact protein remaining”, `O[C@H]1[C@H](O)[C@@H](O)[C@@H]2O[C@@H]2[C@@H]1O` is recorded as 50% (GBA1 (Homo sapiens, UniProt P04062, R534H); 90 min, added: trypsin).

Repeated from above:
`NC(=O)CN1C(=O)C(O)(CC(=O)c2cccc(N)c2)c2ccccc21` (stereo not shown) gave a kcat/Km of 0.0208 M⁻¹ s⁻¹ (uncharacterized protein (Leishmania donovani, UniProt A0A3Q8IA09); glutamine hydrolysis, inhibitor; 100 µM, added: glutamine substrate).
Under “intact protein remaining”, `O[C@H]1[C@H](O)[C@@H](O)[C@@H]2O[C@@H]2[C@@H]1O` is recorded as 50% (GBA1 (Homo sapiens, UniProt P04062, R534H); 90 min, added: trypsin).
